Assay results pooled from the literature.
Parts stem from different laboratories: compare values within a part only. Positions count from the first letter of the parent shown.
Sequence of UniProt O15294 (whole entry, looked up): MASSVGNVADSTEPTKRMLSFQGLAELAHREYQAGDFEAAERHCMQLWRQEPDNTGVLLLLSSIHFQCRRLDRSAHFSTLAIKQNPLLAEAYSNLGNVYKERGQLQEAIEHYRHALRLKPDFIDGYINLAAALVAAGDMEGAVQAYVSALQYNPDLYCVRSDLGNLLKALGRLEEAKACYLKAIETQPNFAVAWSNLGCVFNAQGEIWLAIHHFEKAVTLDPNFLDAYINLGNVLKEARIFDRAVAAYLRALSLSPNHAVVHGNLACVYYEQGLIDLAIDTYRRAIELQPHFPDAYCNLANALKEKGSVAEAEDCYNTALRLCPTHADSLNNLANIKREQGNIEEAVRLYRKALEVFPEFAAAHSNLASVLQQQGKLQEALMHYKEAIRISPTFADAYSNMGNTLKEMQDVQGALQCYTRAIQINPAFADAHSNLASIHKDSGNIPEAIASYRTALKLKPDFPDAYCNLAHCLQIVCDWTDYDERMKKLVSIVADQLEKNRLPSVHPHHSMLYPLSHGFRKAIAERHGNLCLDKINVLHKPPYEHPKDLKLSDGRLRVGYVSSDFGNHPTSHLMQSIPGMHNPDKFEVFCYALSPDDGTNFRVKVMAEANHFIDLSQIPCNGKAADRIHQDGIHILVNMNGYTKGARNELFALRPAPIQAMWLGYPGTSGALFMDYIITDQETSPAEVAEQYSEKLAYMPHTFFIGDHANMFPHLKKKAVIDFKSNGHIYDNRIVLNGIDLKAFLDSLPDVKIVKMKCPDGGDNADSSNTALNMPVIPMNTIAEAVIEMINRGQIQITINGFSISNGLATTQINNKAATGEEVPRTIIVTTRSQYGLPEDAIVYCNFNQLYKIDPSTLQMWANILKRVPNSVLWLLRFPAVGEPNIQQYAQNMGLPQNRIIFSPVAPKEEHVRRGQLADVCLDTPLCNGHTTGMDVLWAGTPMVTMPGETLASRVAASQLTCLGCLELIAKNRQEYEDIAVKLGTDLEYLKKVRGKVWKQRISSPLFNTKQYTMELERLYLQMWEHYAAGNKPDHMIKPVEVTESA

Series 1
Target: ABI1, truncated, D143A, DHFR fusion (Arabidopsis thaliana, UniProt P49597)
Technique: DHFR PCA, dose-response
Sample: yeast
Notes: Hill fit, mean, not affinity
Together with: (+)-ABA, dose series
Reading: lower = more sensitive
Quantity: ABA EC50
Parent: PYL1, truncated, DHFR fusion (Arabidopsis thaliana, UniProt Q8VZS8); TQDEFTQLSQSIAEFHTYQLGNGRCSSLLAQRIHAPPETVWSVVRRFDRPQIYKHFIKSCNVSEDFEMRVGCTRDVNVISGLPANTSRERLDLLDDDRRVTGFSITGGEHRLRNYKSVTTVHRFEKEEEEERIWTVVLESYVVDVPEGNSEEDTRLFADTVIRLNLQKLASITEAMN
T173V: 1970 nM
D97T: 3000 nM
E125Q: 1270 nM
R88L: 3470 nM
D75Y: 2260 nM
R113A: 2740 nM
V143H: 886000 nM
A30P: 61900 nM

Series 2
Target: RING finger protein unkempt homolog, zinc fingers 1-6, GST-SBP tag (UNK, Homo sapiens, UniProt Q9C0B0, residues 30-357)
Sequence of UniProt Q9C0B0 (30-357, looked up): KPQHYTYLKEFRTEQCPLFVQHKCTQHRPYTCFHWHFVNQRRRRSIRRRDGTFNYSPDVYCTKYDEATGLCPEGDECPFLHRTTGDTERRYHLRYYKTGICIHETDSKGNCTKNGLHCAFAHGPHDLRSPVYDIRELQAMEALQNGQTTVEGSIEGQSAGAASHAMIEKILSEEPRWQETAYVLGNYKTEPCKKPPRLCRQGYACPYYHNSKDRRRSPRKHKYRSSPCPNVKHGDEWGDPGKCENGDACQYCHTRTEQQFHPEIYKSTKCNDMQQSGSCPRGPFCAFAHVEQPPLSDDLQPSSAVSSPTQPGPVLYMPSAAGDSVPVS
Technique: RNA Bind-n-Seq
Form: RNA
Sample: in vitro
Concentration: not given
Notes: RNA with constant flanks, human-mouse chimeric sites, ends assumed
Baseline: input RNA pool
Reading: higher = stronger binding
Quantity: bound/input enrichment
Constant ends, left off below: GGGAGUUCUACAGUCCGACGAUC … CAACAGAGGAUUGAGCAUCA
UGUGAACUGUCUCUUGAGAUCUAAAAACAAGAUGACUUUUCCUGGCACAUAUUUCAAAGCAAAGACUUUGUUGCCUGCUGCUUAUUGUCUAAUUUACAGGGAUAUUUAAUUUUGUCAGGU: 0.16 ratio
GCAGGAUCUUCUAAGUACCAGUGGGACAUUAUGAAAUCCCUUGGGCUCUCUGAUGACGAGAUAGUAAAGUUUUCUGAAGCAGAGCACUGGCUUGAUUAUUUCCCACCACUGGCCGUUCAG: 0.196 ratio
UUAAUCCCCUUUACUGCUCCCCCACUUGUCAUGCUGAUAACAAAGUCUUAUAUCCCCGUCCUAGCUUUCACUCAGAUGGCUUAUGGAGCCGGUUUCCUAGCUUUCUUGGGAGGGAUCAGA: 0.318 ratio
CACUCGAGGGCUGCCGUUUUCUGUUUCGCCCUGAGCUGCGGAAAGCCAGAAGAUUUUAUCUAGCUUAUACAAGGCUGCUGGUGUUCCCUCUUUUUUUCCACGAGGGUGUUUUUGGCUGCA: 0.372 ratio
CAGUCCCGCGACAGCGUUGCAGGACGAUGUGAACAAAAACUCAAAGCGGCCCUUUCUUUGUAGUUCUUGAUUCUCGAAAUGUGCUAUUAUUGUUUGUCUUUUUUUUUUUUUUUUUAAAGA: 1.43 ratio
AGAUUCCCCCUCCUGAGACCUCCUCCGAAGUUGGAGUCUCUUACAGAUGGUUCAUCUCCUGUUAGCGUUUUAGUUUGGACCACACAACCUUGGACAAUUCCCGCCAACCAGGCAAUUUGC: 2.98 ratio
GCUCUUGGGAAUGUAAUCAGCGCCUUGGGAGACAAGAGCAAGAGAGCCACCCAUGUCCCUUACAGAGACUCUAAGCUGACAAGACUCCUACAGGAUUCCCUUGGGGGUAACAGCCAAACC: 0.125 ratio
AAAGCCCAAGUAUUUUGAAAAAACUCGAACAGAUUUGACAAGGGUAGCCAGCUUGGAGUCUAGCAACUUGCCAAUGUGUUUACCAAUUUUGGGGGCUUGUUUUUCUUUCUUCUUUCAAAU: 0.233 ratio

Further values, each from its own experiment
P1: viral docking peptide; TSVRRALFTGGSD; partner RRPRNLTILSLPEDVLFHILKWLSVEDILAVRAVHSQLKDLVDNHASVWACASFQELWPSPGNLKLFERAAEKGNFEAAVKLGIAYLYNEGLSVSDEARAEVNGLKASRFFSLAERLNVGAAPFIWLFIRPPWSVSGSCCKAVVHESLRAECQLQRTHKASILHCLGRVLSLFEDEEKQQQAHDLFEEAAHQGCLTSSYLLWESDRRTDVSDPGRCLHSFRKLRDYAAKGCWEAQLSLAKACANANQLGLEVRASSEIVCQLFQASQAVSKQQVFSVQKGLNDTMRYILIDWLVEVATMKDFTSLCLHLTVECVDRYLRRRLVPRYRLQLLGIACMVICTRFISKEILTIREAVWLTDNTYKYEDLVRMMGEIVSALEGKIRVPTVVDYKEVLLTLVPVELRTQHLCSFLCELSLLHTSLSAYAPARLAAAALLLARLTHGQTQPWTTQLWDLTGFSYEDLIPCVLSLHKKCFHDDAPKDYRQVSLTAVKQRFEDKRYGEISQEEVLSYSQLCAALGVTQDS
PhoQ, residues 284 288 289 292 302 303 SMMNNA
fold induction (PhoP, residues 12 14 15 18 19 SYFRT (Escherichia coli, UniProt P23836); Sort-seq, measured: YFP reporter; E. coli; PhoQ-PhoP variant library, together with: 10 µM Mg2+; baseline: high Mg2+ state, higher = stronger signaling): 1.15

HIHKRDTHWAWYTIG
minimum log2 enrichment ratio (OGT (Homo sapiens, UniProt O15294); binding, phage display NGS; peptide; baseline: input library): 1.69

P1 R4I
normalised enrichment score (CCNF, cyclin fold, Cln2 fusion (human); yeast growth competition, sequencing; yeast; strong parent motif; baseline: not given, higher = stronger binding): 6.79

Repeated from above (series 2):
UGUGAACUGUCUCUUGAGAUCUAAAAACAAGAUGACUUUUCCUGGCACAUAUUUCAAAGCAAAGACUUUGUUGCCUGCUGCUUAUUGUCUAAUUUACAGGGAUAUUUAAUUUUGUCAGGU: 0.16 ratio
